Published values from different studies.
Each numbered part is a random draw from the data of one study; scales do not carry over between parts.

Sample 1
Target: Interferon regulatory factor 3, full length, phosphomimetic (IRF3, Homo sapiens, UniProt Q14653, residues 1-427, S386D/S396D/S398D/S402D/T404D/S405D)
Technique: protein-binding microarray
Form: double-stranded DNA, one strand shown
Matrix: in vitro
Concentration: 2540 nM top
Setting: 60-bp whole probe
With: salmon DNA 0.4 mg/ml
Baseline: random background probes
Reading: higher = stronger binding
Measurement: fitted relative affinity
Construct (chain): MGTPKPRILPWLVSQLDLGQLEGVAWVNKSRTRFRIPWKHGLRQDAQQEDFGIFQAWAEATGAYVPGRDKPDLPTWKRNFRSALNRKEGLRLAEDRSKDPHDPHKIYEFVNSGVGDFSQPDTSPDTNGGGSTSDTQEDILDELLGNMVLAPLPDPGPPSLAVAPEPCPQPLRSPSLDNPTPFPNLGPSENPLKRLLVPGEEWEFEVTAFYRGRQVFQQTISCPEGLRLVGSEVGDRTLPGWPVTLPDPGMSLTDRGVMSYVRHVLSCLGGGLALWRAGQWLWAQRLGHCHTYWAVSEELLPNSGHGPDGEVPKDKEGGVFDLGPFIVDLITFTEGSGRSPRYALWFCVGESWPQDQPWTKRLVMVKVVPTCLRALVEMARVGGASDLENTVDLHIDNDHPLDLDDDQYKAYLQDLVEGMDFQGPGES
GCCTAGCACGACGGTCTCGGACTGGGAACGTGCTAGGTCTTGATTCGCTTGACGCTGCTG: 0.142 z-score
GCCTAGCACTTAGATCGCAGTATCGATTAGTGCTAGGTCTTGATTCGCTTGACGCTGCTG: 0.746 z-score
GCCTAGCACGTAGGTATCCTTATCCTTTAGTGCTAGGTCTTGATTCGCTTGACGCTGCTG: 5.43 z-score
GCCTAGCACTCACTTCCCAATTCTCTTACTGTGCTAGTCTTGATTCGCTTGACGCTGCTG: 3.28 z-score

Sample 2
Target: Histone acetyltransferase KAT6A, winged helix 2, GST fusion (KAT6A, Homo sapiens, UniProt Q92794, residues 85-181)
Technique: protein binding microarray
Form: double-stranded DNA, one strand shown
Matrix: in vitro
Concentration: not given
Setting: 8-mer, flanks averaged, mean of 2 arrays, mostly near background
Baseline: not given
Reading: higher = stronger binding
Measurement: E-score
Construct (chain): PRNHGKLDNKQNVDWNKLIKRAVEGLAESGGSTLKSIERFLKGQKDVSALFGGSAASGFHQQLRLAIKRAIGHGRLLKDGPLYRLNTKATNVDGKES
CCCGAGCG: 0.193
AACCCCCT: -0.124
ACGATATA: -0.17
CCCTAGGC: -0.0238
CCCTGTGC: 0.0546
CAACGACC: 0.0158

Sample 3
Target: TAR DNA-binding protein 43, full length, His tag (TARDBP, Homo sapiens, UniProt Q13148, residues 1-414)
Technique: RNA Bind-n-Seq
Form: RNA
Matrix: in vitro
Concentration: 20 nM
Setting: 6-mer, flanks averaged, single round
With: 150 mM KCl
Baseline: input library
Reading: higher = stronger binding
Measurement: 6-mer enrichment (R)
GAUCGC: 0.842
UAGUAU: 0.7
CUGUUG: 0.77
UACUUG: 0.633
GGCGUA: 1.47
GCAAAA: 0.792
UAAAUU: 0.623

Other studies, line by line
PhoQ, residues 284 288 289 292 302 303 AMDMFI  fold induction (PhoP, residues 12 14 15 18 19 LHSVW (Escherichia coli, UniProt P23836); Sort-seq, measured: YFP reporter; E. coli; PhoQ-PhoP variant library, with: 10 µM Mg2+; baseline: high Mg2+ state, higher = stronger signaling): 0.815

Repeated from above (sample 2):
CCCGAGCG: 0.193
AACCCCCT: -0.124
ACGATATA: -0.17
